Results gathered from unrelated publications.
Each line is one published result; not all experiments were run side by side. Numbers after ± are the reported error.
UniProt Q6JQN1, sequence (whole entry, looked up): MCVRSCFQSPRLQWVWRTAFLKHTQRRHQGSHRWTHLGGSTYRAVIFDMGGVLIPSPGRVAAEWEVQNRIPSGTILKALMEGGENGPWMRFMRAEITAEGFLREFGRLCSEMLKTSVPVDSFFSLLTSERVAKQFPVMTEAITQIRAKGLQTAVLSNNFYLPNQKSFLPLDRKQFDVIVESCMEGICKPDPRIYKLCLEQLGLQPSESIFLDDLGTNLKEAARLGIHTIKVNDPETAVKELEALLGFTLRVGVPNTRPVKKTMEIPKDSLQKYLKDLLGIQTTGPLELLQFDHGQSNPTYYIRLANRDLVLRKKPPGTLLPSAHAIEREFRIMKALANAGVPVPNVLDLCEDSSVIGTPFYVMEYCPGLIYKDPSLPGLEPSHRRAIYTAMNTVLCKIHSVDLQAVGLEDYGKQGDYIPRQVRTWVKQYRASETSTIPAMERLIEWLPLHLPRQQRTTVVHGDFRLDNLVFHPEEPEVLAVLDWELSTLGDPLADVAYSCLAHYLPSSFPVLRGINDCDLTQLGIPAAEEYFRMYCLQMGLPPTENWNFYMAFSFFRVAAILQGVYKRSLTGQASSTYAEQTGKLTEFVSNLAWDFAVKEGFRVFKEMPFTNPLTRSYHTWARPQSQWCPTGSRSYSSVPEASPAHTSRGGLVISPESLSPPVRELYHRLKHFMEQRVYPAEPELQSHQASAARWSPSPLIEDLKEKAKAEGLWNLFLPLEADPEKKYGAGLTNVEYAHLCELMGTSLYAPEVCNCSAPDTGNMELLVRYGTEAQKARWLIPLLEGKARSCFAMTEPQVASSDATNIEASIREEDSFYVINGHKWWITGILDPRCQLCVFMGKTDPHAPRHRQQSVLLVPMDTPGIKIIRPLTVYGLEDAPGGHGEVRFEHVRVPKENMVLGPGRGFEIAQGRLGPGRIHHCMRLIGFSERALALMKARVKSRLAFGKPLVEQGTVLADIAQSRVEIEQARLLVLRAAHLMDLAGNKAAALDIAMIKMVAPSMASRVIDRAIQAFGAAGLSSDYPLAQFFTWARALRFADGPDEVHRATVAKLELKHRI
UniProt P18031, sequence (whole entry, looked up): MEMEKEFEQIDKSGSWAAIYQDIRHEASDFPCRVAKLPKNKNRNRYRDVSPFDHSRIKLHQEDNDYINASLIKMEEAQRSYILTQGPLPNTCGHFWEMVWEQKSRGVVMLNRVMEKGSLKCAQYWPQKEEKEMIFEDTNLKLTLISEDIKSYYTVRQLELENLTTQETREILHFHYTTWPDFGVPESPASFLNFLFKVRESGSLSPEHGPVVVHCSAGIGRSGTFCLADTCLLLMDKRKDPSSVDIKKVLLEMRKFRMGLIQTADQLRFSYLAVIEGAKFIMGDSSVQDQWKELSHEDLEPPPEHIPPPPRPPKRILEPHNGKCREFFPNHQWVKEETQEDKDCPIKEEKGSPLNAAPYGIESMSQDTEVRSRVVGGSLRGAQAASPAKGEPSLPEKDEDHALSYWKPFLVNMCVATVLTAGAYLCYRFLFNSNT

SMILES	target or system	assay	system	conditions	scale	measurement	result
C[C@H]1CN(c2n[nH]c3nc(N[C@H]4CC[C@H](NS(=O)(=O)CCC(F)(F)F)CC4)ncc23)CCO1	ACAD10 (Homo sapiens, UniProt Q6JQN1)	inhibitor, Kinobeads competition profiling		0.032 µM	baseline: vehicle	relative abundance	1.21
CCCCCCCCCC(=O)N[C@@H](Cc1c[nH]c2ccccc12)C(=O)N[C@H](CC(N)=O)C(=O)N[C@@H](CC(=O)O)C(=O)N[C@@H]1C(=O)NCC(=O)N[C@@H](CCCNC(=O)CCC(=O)N2Cc3ccccc3-c3c(nnn3CCC[C@H](NC(=O)CCCCC[N+]3=C(C=CC4=CC(=CC=C5N(C)c6ccccc6C5(C)C)CCC4)C(C)(C)c4ccccc43)C(=O)NCCCCNC(=O)CCC(=O)N3Cc4ccccc4C#Cc4ccccc43)-c3ccccc32)C(=O)N[C@@H](CC(=O)O)C(=O)N[C@H](C)C(=O)N[C@@H](CC(=O)O)C(=O)NCC(=O)N[C@H](CO)C(=O)N[C@@H]([C@H](C)CC(=O)O)C(=O)N[C@@H](CC(=O)c2ccccc2N)C(=O)O[C@@H]1C		rapid equilibrium dialysis	human plasma	1 µM, 2 h, 37 °C		fraction unbound	0.174
CO[C@H]1C[C@@H]2CC[C@@H](C)[C@@](O)(O2)C(=O)C(=O)N2CCCC[C@H]2C(=O)O[C@H]([C@H](C)C[C@@H]2CC[C@@H](OC(=O)NCCOCCOCCOCCOCCOCCOCCOCCOCCC(=O)N3CCc4cc(Cn5nc(-c6ccc7oc(N)nc7c6)c6c(N)ncnc65)ccc4C3)[C@H](OC)C2)C[C@@H](O)[C@H](C)/C=C(\C)[C@@H](O)[C@@H](OC)C(=O)[C@H](C)C[C@H](C)/C=C/C=C/C=C/1C		phase 1 dose escalation, measured: fatigue	advanced solid tumour patients	intravenous, 10 mg weekly, grade ≥3		dose-reducing adverse events	0%
CC(C)C[C@@H]1NC(=O)[C@H](CC(C)C)NC(=O)[C@H](Cc2c[nH]c3ccccc23)NC(=O)[C@H](CO)NC(=O)[C@H](Cc2c[nH]c3ccccc23)NC(=O)[C@@H]2CCCN2C(=O)[C@H](CC(C)C)NC(=O)[C@H](Cc2c[nH]cn2)NC(=O)[C@@H]2CCCN2C(=O)[C@H](CC(N)=O)NC(=O)[C@H](C)NC(=O)[C@H](Cc2ccc(O)cc2)NC(=O)[C@H](CS)NC(=O)[C@H](CCCCNC(=O)CN2CCN(CC(=O)O)CCN(CC(=O)O)CCN(CC(=O)O)CC2)NC1=O [lutetium-177 labelled]		OLINDA dosimetry	BALB/c mice, intestine	37 MBq, 7 days		total nuclear transformations	318 MBq-s
CC[C@H](C)[C@H](NC(=O)[C@H](Cc1ccccc1)NC(=O)[C@H](CCC(=O)O)NC(=O)[C@H](CCCNC(=N)N)NC(=O)[C@H](C)NC(=O)[C@H](C)NC(=O)[C@H](CCC(N)=O)NC(=O)[C@H](CCC(=O)O)NC(=O)[C@H](CCC(=O)O)NC(=O)[C@H](CC(C)C)NC(=O)[C@H](Cc1ccc(O)cc1)NC(=O)[C@H](CO)NC(=O)[C@H](CO)NC(=O)[C@@H](NC(=O)[C@H](CC(=O)O)NC(=O)[C@H](CO)NC(=O)[C@@H](NC(=O)[C@H](Cc1ccccc1)NC(=O)[C@@H](NC(=O)CNC(=O)[C@H](CCC(=O)O)NC(=O)[C@H](C)NC(=O)CCc1c[nH]cn1)[C@@H](C)O)[C@@H](C)O)C(C)C)C(=O)N[C@@H](C)C(=O)N[C@@H](Cc1c[nH]c2ccccc12)C(=O)N[C@@H](CC(C)C)C(=O)N[C@H](C(=O)N[C@@H](CCCNC(=N)N)C(=O)NCC(=O)N[C@@H](CCCNC(=N)N)C(=O)N[C@@H](CCCCNC(=O)COCCOCCNC(=O)COCCOCCNC(=O)CC[C@H](NC(=O)CCCCCCCCCCCCCCCCC(=O)O)C(=O)O)C(=O)NCC(=O)NCC(=O)N[C@@H](CO)C(=O)N[C@@H](CCCCNc1c(NCCCCCN(O)C(=O)CCC(=O)NCCCCCN(O)C(=O)CCC(=O)NCCCCCN(O)C(C)=O)c(=O)c1=O)C(=O)O)C(C)C [zirconium-89 labelled]			rat, blood	sc, 3 nmol/kg, 24 h, ex vivo		tissue uptake	0.3 %ID/g
O=C(O)C[C@H](NC(=O)[C@H](CC(=O)O)NC(=O)[C@H](CC(=O)O)NC(=O)[C@H](CC(=O)O)NC(=O)[C@H](CC(=O)O)NC(=O)[C@H](CC(=O)O)NC(=O)[C@H](CC(=O)O)NC(=O)[C@H](CC(=O)O)NC(=O)[C@H](CC(=O)O)NC(=O)[C@H](CC(=O)O)NC(=O)[C@H](CC(=O)O)NC(=O)[C@H](CCCCNC(=O)c1ccc(C(=O)NCCOCCOB2BBBBBB3BBBB3B2)cc1)NC(=O)CN1CCN(CC(=O)O)CCN(CC(=O)O)CCN(CC(=O)O)CC1)C(=O)O [gallium-67 labelled]			ddY male mice, liver	intravenous, 37 kBq, 1 h		tissue uptake	0.37 %ID/g
COc1cc2c(Oc3ccc4[nH]c(C)cc4c3F)ccnc2cc1OCC1(N)CC1			paediatric recurrent refractory sarcoma	8 mg/kg		grade 3 Hematuria	6.7%
COc1cc(Nc2ncc(F)c(Nc3ccc4c(n3)NC(=O)C(C)(C)O4)n2)cc(OC)c1OC	PTPN1 (Homo sapiens, UniProt P18031)			PTP1B		IC50	> 10 µM
CC(C)C[C@H](NC(=O)[C@H](C)NC(=O)[C@@H](NC(=O)[C@H](C)NC(=O)[C@H](CC(C)C)NC(=O)[C@H](CC(=O)O)NC(=O)[C@@H]1CCCN1C(=O)[C@@H]1CCCN1C(=O)[C@H](CC(=O)O)NC(=O)[C@H](Cc1ccccc1)NC(=O)[C@H](Cc1c[nH]c2ccccc12)NC(=O)[C@H](CC(C)C)NC(=O)[C@H](C)NC(=O)[C@@H](NC(=O)[C@H](C)NC(=O)[C@H](CC(C)C)NC(=O)[C@H](CC(=O)O)NC(=O)COCC(=O)NCCCOCCOCCOCCCNC(=O)COCC(=O)NCCCOCCOCCOCCCNC(=O)CCC(C(=O)O)N1CCN(CC(=O)O)CCN(CC(=O)O)CC1)C(C)C)C(C)C)C(=O)N[C@@H](Cc1c[nH]c2ccccc12)C(=O)N[C@@H](Cc1ccccc1)C(=O)N[C@@H](CC(=O)O)C(N)=O (stereo partly drawn) [gallium-68 labelled]		radio-HPLC	healthy C57BL/6 mice, plasma	intravenous, 4 MBq, 30 min, ex vivo analysis		intact parent in plasma	50 ± 8%
C[C@@H](O)[C@@H](CO)NC(=O)[C@@H](CCCNC(=N)N)NC(=O)[C@@H]1CCCN1C(=O)[C@@H]1CSSC[C@H](NC(=O)[C@H](Cc2ccccc2)NC(=O)CN2CCN(CC(=O)O)CCN(CC(=O)O)CCN(CC(=O)O)CC2)C(=O)N[C@@H](Cc2ccc(O)cc2)C(=O)N[C@@H](Cc2ccccc2)C(=O)N[C@@H](CCC(N)=O)C(=O)N[C@@H](CC(N)=O)C(=O)N1 [gallium-68 labelled]			healthy Wistar rat, bone	intravenous, 8 MBq, 60 min, individual animals		tissue uptake	0.27 %ID/g
C[C@@H](O)[C@H](NC(=O)[C@@H]1CSSC[C@H](NC(=O)[C@@H](Cc2ccccc2)NC(=O)CN2CCN(CC(=O)[O-])CCN(CC(=O)[O-])CCN(CC(=O)[O-])CC2)C(=O)N[C@@H](Cc2ccc(O)cc2)C(=O)N[C@H](Cc2c[nH]c3ccccc23)C(=O)N[C@@H](CCCCN)C(=O)N[C@@H]([C@@H](C)O)C(=O)N1)C(=O)O.[177Lu+3]	MEC1 treated with 200 µM zebularine	gamma counter		15 min efflux after 2 h loading		retention	39.5%
CC(C)C[C@H](NC(=O)C[C@H](O)[C@H](CC(C)C)NC(=O)[C@H](Cc1c[nH]cn1)NC(=O)CNC(=O)[C@@H](NC(=O)[C@H](C)NC(=O)[C@H](Cc1c[nH]c2ccccc12)NC(=O)[C@H](CCC(N)=O)NC(=O)[C@@H](Cc1ccccc1)NC(=O)CCNC(=O)CCSc1nnc(NCCC(=O)NCCC(=O)NCCCC[C@H](NC(=O)N[C@@H](CCC(=O)O)C(=O)O)C(=O)O)c2c1CCC1C(CC2)C1COC(=O)NCCNC(=O)CC[C@H](C(=O)O)N1CCN(CC(=O)O)CCN(CC(=O)O)CC1)C(C)C)C(N)=O (stereo partly drawn) [gallium-68 labelled]			athymic NMRI nude mouse, intestine	intravenous, dose not given, 2 h, with: bombesin 480 nmol (GRPR blocking)		tissue uptake	0.37 %ID/g

A few entries again:
SMILES	target or system	assay	system	conditions	scale	measurement	result
CC(C)C[C@H](NC(=O)[C@H](C)NC(=O)[C@@H](NC(=O)[C@H](C)NC(=O)[C@H](CC(C)C)NC(=O)[C@H](CC(=O)O)NC(=O)[C@@H]1CCCN1C(=O)[C@@H]1CCCN1C(=O)[C@H](CC(=O)O)NC(=O)[C@H](Cc1ccccc1)NC(=O)[C@H](Cc1c[nH]c2ccccc12)NC(=O)[C@H](CC(C)C)NC(=O)[C@H](C)NC(=O)[C@@H](NC(=O)[C@H](C)NC(=O)[C@H](CC(C)C)NC(=O)[C@H](CC(=O)O)NC(=O)COCC(=O)NCCCOCCOCCOCCCNC(=O)COCC(=O)NCCCOCCOCCOCCCNC(=O)CCC(C(=O)O)N1CCN(CC(=O)O)CCN(CC(=O)O)CC1)C(C)C)C(C)C)C(=O)N[C@@H](Cc1c[nH]c2ccccc12)C(=O)N[C@@H](Cc1ccccc1)C(=O)N[C@@H](CC(=O)O)C(N)=O (stereo partly drawn) [gallium-68 labelled]		radio-HPLC	healthy C57BL/6 mice, plasma	intravenous, 4 MBq, 30 min, ex vivo analysis		intact parent in plasma	50 ± 8%
